{"data": "Measured values of several laboratories", "note": "Compare with care: the assays were run in different laboratories. “And” joins repeats or separate records; there may be more than shown.", "sequence of UniProt P05177 (whole entry, looked up)": "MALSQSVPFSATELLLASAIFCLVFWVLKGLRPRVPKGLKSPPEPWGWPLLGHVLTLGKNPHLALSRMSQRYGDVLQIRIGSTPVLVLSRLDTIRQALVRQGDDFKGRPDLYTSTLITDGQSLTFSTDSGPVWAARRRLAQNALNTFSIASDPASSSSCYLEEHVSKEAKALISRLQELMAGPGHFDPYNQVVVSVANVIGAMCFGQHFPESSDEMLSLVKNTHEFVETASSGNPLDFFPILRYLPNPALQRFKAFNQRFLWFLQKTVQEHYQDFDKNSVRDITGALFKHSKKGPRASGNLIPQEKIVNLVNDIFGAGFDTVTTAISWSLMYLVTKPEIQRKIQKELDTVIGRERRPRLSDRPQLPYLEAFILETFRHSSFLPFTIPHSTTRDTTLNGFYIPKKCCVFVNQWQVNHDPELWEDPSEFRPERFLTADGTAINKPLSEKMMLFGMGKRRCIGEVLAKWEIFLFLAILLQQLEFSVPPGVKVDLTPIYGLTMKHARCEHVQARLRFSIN"}
{"SMILES": "Nc1nc2cc(C(=O)c3ccc(F)cc3)ccc2[nH]1", "tested on": "Escherichia coli", "assay": "Ames preincubation test", "system": "WP2 uvrA", "conditions": "156.0 µg/plate, without S9", "endpoint": "revertants", "result": "35.3 revertants/plate"}
{"SMILES": "C=C(NC(=O)c1csc(-c2nc3c(cc2O)-c2nc(cs2)C(=O)NC(C(C)O)C(=O)NC(=C(C)OC)c2nc(cs2)C(=O)NC2c4nc(cs4)C(=O)NC(COC(=O)c4c5c6c(cccc6n4O)COC(=O)C(OC4CC(C)(O)C(N(C)C)C(C)O4)C2OC5)c2nc-3cs2)n1)C(N)=O (stereo not drawn)", "system": "cynomolgus monkey, female, plasma", "conditions": "intravenous infusion, 1.5 mg/kg twice daily, 0 to 30 h", "endpoint": "AUC(0-inf)", "result": "26300 ng·h/mL"}
{"SMILES": "CC(C)c1ccc(O)c(=O)c(O)c1", "tested on": "HepDES19", "assay": "cell growth or viability, MTS", "conditions": "72 h", "endpoint": "CC50", "result": "25 µM"}
{"SMILES": "COc1cccc(OC)c1-c1cc(C(=O)NC2(C(=O)O)C3CC4CC(C3)CC2C4)nn1-c1ccc(C(=O)NCCNC(=O)[C@H](CCCCNC(=O)[C@H](CC(C)C)NC(=O)C2OC2C(=O)O)NC(=O)CN2CCN(CC(=O)[O-])CCN(CC(=O)[O-])CCN(CC(=O)[O-])CC2)cc1C(C)C.[177Lu+3] (mixture of isomers)", "tested on": "HT-29 tumour model", "system": "host not given, bone", "conditions": "72 h, tumour-bearing", "endpoint": "tracer uptake", "result": "0.05 %ID/g"}
{"SMILES": "COC1CN([C@H]2CC[C@H]([C@@]3(C)Oc4c(Cl)cc(C(=O)NCc5c(SC)cc(C)[nH]c5=O)c(C)c4O3)CC2)C1", "assay": "RNA-seq, measured: PHLPP1 mouse homolog", "system": "mouse, HT-1376 xenograft, whole blood", "conditions": "dose not given", "scale": "reference: vehicle", "endpoint": "log2 fold change", "result": 0.74}
{"SMILES": "C=CC(=O)Nc1cccc(Cn2ncc3cnc(Nc4cnn(CCOC)c4)nc32)c1", "tested on": "MEK5 human", "assay": "binding, KINOMEscan", "conditions": "100 nM", "scale": "lower = stronger binding", "endpoint": "percent of control", "result": "80%"}
{"SMILES": "Cc1ncsc1-c1ccc(C(C)NC(=O)C2CC(O)CN2C(=O)C(NC(=O)CCCCCCCCCCN2CCCC(Nc3ncc(Cl)c(Nc4ccccc4S(=O)(=O)C(C)C)n3)C2)C(C)(C)C)cc1 (stereo not drawn)", "tested on": "22Rv1", "assay": "RNA-seq, measured: TRIM65 mRNA", "conditions": "concentration not given", "scale": "reference: DMSO", "endpoint": "log2 fold change", "result": -1.44}
{"SMILES": "CCN(CC)CC#CCNc1ccnc2cc(Cl)ccc12", "tested on": "Salmonella typhimurium", "assay": "mini-Ames test", "system": "TA100", "conditions": "125.0 µg/well, without S9", "endpoint": "revertants per well", "result": 25}
{"SMILES": "Nc1ncc(-c2cc(-c3cnn(CC(F)(F)F)c3)ncc2F)nc1C(=O)NC1CNCC(F)C1 (stereo not drawn)", "tested on": "PCTK2", "assay": "KINOMEscan", "conditions": "1 µM", "scale": "reference: DMSO control", "endpoint": "remaining binding", "result": "98%"}
{"SMILES": "CNC(=O)C1CCCN(C(=O)C2CC3CCC2N3C(=O)[C@@H]2C[C@@H](O)CN2C(=O)NCc2cccc(Cl)c2F)C1 (mixture of isomers)", "tested on": "Cytochrome P450 1A2 (CYP1A2, Homo sapiens, UniProt P05177)", "assay": "preincubation with NADPH", "system": "human", "conditions": "0.0686 µM", "scale": "reference: negative control", "endpoint": "remaining activity", "result": "99.4% and 94.8% and 98.2%"}
{"SMILES": "CNS(=O)(=O)Nc1nccc(Cc2c(C)c3ccc(Oc4ncccc4F)cc3oc2=O)c1F", "tested on": "KMS-11", "assay": "cell viability", "conditions": "7 days", "endpoint": "IC50", "result": "> 1 µM"}
{"SMILES": "Cc1cc(O)c(=O)c(O)cc1C(=O)O", "tested on": "HepDES19", "assay": "cell growth or viability, MTS", "conditions": "72 h", "endpoint": "CC50", "result": "50 µM"}
{"SMILES": "O=C1C2CC3CC1CC(C(=O)N1CCN(c4ccc([N+](=O)[O-])c5ncccc45)CC1)(C3)C2", "tested on": "Salmonella typhimurium", "assay": "Ames test", "system": "TA1535", "conditions": "0.13 µg/well, without S9", "scale": "reference: vehicle", "endpoint": "revertant fold increase", "result": 0.5}
{"SMILES": "COC(=O)c1c(C)cc(OC)c(=O)c(O)c1OC", "tested on": "HepDES19", "assay": "cell growth or viability, MTS", "conditions": "72 h", "endpoint": "CC50", "result": "> 100 µM"}
{"SMILES": "CC(C)OCCOCc1ccc(OCC(O)CN(N=O)C(C)C)cc1 (stereo not drawn)", "tested on": "Escherichia coli", "assay": "enhanced Ames test", "system": "WP2 uvrA", "conditions": "5000 µg/plate, without S9", "scale": "reference: solvent control", "endpoint": "revertant fold increase", "result": "0.7 fold"}
{"note": "For quick reference, copied from above:"}
{"SMILES": "COC1CN([C@H]2CC[C@H]([C@@]3(C)Oc4c(Cl)cc(C(=O)NCc5c(SC)cc(C)[nH]c5=O)c(C)c4O3)CC2)C1", "assay": "RNA-seq, measured: PHLPP1 mouse homolog", "system": "mouse, HT-1376 xenograft, whole blood", "conditions": "dose not given", "scale": "reference: vehicle", "endpoint": "log2 fold change", "result": 0.74}
{"SMILES": "C=CC(=O)Nc1cccc(Cn2ncc3cnc(Nc4cnn(CCOC)c4)nc32)c1", "tested on": "MEK5 human", "assay": "binding, KINOMEscan", "conditions": "100 nM", "scale": "lower = stronger binding", "endpoint": "percent of control", "result": "80%"}
